# Experimental data collected from several papers.
# Numbers after ± are the reported error.
Compound,cell line,test,conditions,how to read,viability
CC[C@H](C)[C@H](NC(=O)[C@H](CCCCN)NC(=O)[C@H](CCC(=O)O)NC(=O)[C@H](CCCCN)NC(=O)[C@H](CO)NC(=O)[C@H](CCCCN)NC(=O)[C@H](CCCNC(=N)N)NC(=O)[C@H](Cc1ccccc1)NC(=O)[C@H](Cc1ccccc1)NC(=O)[C@H](CC(=O)O)NC(=O)CNC(=O)[C@H](CC(C)C)NC(=O)[C@@H](N)CC(C)C)C(=O)NCC(=O)N[C@@H](CCCCN)C(=O)N[C@@H](CCC(=O)O)C(=O)N[C@@H](Cc1ccccc1)C(=O)N[C@@H](CCCCN)C(=O)N[C@@H](CCCNC(=N)N)C(=O)N[C@H](C(=O)N[C@H](C(=O)N[C@@H](CCC(N)=O)C(=O)N[C@@H](CCCNC(=N)N)C(=O)N[C@H](C(=O)N[C@@H](CCCCN)C(=O)N[C@@H](CC(=O)O)C(=O)N[C@@H](Cc1ccccc1)C(=O)N[C@@H](CC(C)C)C(=O)N[C@@H](CCCNC(=N)N)C(=O)N[C@@H](CC(N)=O)C(=O)N[C@@H](CC(C)C)C(=O)N[C@H](C(=O)N1CCC[C@H]1C(=O)N[C@@H](CCCNC(=N)N)C(=O)N[C@H](C(=O)N[C@@H](CCC(=O)O)C(=O)N[C@@H](CO)C(=O)O)[C@@H](C)O)C(C)C)[C@@H](C)CC)C(C)C)[C@@H](C)CC,differentiated SH-SY5Y,"microglia-mediated neurotoxicity, MTT, microglial supernatant transfer","30 µM, 2 days",reference: fresh medium,70%
CC1(C)C=Cc2c(cc3oc(-c4ccccc4)cc(=O)c3c2O)O1,differentiated SH-SY5Y,MTT,10 µM,reference: control,100 ± 6.3%
Nc1nnc(NCc2c(Cl)cccc2Oc2ccccc2)[nH]1,K562,MTS,"concentration not given, 72 h",,not toxic
CC1(C)C(/C=C/C=C/C=C/C=C2/N(CCC(=O)N[C@@H]3CSSC[C@@H](C(=O)N[C@@H](CCCCN)C(=O)O)NC(=O)[C@@H]4CCCN4C(=O)[C@H](CO)NC(=O)[C@H](CC(=O)O)NC(=O)[C@H](CCCNC(=N)N)NC(=O)CNC3=O)c3ccc4ccccc4c3C2(C)C)=[N+](CCC(=O)O)c2ccc3ccccc3c21,4T1 or fibroblasts,,"concentration not given, 48 or 72 h",,no effect
C[C@H](C(=O)NCC(=O)N[C@@H](Cc1ccc(O)cc1)C(=O)N[C@H]1CCCCNC(=O)C[C@@H](C(=O)N[C@@H](Cc2cccc3ccccc23)C(=O)N[C@@H](Cc2cccc3ccccc23)C(=O)N[C@H](CCC(=O)O)C(=O)O)NC(=O)[C@H](Cc2ccc(O)cc2)NC(=O)[C@H]([C@@H](C)O)NC(=O)[C@@H]2CCCN2C(=O)[C@H](CC(N)=O)NC1=O)N(C)C(=O)[C@H](CCCNC(=N)N)NC(=O)[C@H](CCCNC(=N)N)NC(=O)[C@H](CCCNC(=N)N)NC(=O)[C@H](CCC(N)=O)NC(=O)[C@H](CCCNC(=N)N)NC(=O)[C@H](CCCNC(=N)N)NC(=O)[C@H](CCCCN)NC(=O)[C@H](CCCCN)NC(=O)[C@H](CCCNC(=N)N)NC(=O)CNC(=O)[C@@H](N)Cc1ccc(O)cc1,mouse primary neurons,,20 µM,,75%
CC1(C)C=Cc2c(cc(O)c3c(=O)cc(-c4ccccc4)oc23)O1,differentiated SH-SY5Y,MTT,"100 µM, 24 h, retinoic acid differentiated",reference: control,83.4 ± 1.1%
CC(C)C[C@H](NC(=O)[C@H](CCN)NC(=O)[C@H](CCN)NC(=O)[C@H](CC(C)C)NC(=O)[C@H](Cc1c[nH]c2ccccc12)NC(=O)[C@H](CCN)NC(=O)[C@@H](N)CC(C)C)C(N)=O,L132,MTT,"100 µM, 4 h",,~90%
C[C@@H]1NC(=O)[C@H](CCC(=O)O)NC(=O)[C@@H]2CSSC[C@H](NC(=O)[C@H](CCCCN)NC(=O)CNC1=O)C(=O)N[C@@H](CO)C(=O)N[C@H]1CSSC[C@H](NC(=O)[C@H](CC(=O)O)NC(=O)[C@@H]3CSSC[C@H](NC(=O)[C@H](Cc4ccc(O)cc4)NC1=O)C(=O)N[C@@H](CC(=O)O)C(=O)N[C@@H](C)C(=O)NCC(=O)N[C@@H](CC(=O)O)C(=O)N3)C(=O)N[C@@H](CCCCN)C(=O)N2,OVCAR-3 and HFLS-RA,CellTiter-Glo,up to 100 µM,,not toxic
COc1cc2c(=O)cc(-c3ccccc3)oc2c2c1OC(C)(C)C=C2,differentiated SH-SY5Y,MTT,100 µM,reference: control,75.3 ± 2.3%

# A few entries again:
Compound,cell line,test,conditions,how to read,viability
CC1(C)C=Cc2c(cc3oc(-c4ccccc4)cc(=O)c3c2O)O1,differentiated SH-SY5Y,MTT,10 µM,reference: control,100 ± 6.3%
